Experimental data from different studies.
Each numbered part is a random draw from the data of one study; scales do not carry over between parts.
UniProt P36897, sequence (whole entry, looked up): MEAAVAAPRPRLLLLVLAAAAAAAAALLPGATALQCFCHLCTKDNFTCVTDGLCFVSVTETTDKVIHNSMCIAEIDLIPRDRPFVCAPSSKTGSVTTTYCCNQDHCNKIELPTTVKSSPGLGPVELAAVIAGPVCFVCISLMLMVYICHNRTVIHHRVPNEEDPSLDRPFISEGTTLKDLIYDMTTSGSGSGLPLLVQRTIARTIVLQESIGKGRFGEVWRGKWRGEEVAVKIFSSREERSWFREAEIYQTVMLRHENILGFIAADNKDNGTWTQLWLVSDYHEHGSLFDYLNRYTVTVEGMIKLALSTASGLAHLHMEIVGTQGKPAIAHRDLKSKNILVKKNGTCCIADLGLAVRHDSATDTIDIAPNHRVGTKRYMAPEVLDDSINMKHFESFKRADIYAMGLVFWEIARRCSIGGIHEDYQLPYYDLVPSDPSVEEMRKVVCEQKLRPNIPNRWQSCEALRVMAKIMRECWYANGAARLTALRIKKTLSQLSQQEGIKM
UniProt P10721, sequence (whole entry, looked up): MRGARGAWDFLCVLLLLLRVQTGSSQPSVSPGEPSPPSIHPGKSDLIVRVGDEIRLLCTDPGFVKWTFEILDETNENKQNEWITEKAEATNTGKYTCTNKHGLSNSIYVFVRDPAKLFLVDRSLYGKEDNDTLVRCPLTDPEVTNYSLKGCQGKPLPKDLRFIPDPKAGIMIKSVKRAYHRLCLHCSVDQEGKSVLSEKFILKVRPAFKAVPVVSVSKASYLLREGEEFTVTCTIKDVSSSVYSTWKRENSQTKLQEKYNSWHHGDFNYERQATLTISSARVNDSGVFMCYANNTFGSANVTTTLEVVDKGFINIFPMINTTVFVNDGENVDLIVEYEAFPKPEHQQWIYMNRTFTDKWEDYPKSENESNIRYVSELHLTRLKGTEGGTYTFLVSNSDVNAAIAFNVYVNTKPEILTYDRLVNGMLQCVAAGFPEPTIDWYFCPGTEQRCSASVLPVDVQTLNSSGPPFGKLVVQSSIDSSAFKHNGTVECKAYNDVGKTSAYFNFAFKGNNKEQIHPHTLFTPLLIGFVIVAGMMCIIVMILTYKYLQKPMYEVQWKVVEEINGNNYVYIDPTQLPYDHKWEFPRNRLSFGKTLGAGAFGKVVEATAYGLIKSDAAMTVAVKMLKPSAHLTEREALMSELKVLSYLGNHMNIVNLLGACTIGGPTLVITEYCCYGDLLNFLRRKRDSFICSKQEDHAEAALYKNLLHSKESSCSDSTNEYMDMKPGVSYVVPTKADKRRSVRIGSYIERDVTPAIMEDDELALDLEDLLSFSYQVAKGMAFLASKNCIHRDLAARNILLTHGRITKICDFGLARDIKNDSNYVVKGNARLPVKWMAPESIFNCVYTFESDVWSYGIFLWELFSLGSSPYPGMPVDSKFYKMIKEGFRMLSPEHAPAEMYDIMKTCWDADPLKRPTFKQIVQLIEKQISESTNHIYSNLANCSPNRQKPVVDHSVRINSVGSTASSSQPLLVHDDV
UniProt P49761, sequence (whole entry, looked up): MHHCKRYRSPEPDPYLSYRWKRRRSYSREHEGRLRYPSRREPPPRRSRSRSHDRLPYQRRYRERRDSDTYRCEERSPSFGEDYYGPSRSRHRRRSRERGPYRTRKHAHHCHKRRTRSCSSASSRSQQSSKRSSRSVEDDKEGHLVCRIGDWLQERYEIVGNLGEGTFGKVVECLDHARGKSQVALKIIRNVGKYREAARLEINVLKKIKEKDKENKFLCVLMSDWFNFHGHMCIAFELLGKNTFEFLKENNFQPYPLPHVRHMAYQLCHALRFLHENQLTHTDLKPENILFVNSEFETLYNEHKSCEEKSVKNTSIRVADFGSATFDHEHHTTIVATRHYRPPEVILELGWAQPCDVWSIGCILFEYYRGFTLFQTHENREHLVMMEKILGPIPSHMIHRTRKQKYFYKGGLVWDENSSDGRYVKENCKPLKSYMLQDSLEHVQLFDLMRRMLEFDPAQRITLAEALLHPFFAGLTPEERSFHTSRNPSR
UniProt P49674, sequence (whole entry, looked up): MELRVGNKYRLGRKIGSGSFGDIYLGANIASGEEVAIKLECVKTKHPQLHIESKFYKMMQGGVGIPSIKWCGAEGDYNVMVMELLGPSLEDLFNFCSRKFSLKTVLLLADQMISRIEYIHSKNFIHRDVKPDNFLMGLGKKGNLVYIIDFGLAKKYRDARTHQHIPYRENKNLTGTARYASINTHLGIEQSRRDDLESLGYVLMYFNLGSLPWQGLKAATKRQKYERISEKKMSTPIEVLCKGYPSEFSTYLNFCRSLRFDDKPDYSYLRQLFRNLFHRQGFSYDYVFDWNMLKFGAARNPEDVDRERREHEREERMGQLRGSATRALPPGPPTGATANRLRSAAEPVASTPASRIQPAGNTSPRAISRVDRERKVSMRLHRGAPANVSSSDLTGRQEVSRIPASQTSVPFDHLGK
UniProt P07948, sequence (whole entry, looked up): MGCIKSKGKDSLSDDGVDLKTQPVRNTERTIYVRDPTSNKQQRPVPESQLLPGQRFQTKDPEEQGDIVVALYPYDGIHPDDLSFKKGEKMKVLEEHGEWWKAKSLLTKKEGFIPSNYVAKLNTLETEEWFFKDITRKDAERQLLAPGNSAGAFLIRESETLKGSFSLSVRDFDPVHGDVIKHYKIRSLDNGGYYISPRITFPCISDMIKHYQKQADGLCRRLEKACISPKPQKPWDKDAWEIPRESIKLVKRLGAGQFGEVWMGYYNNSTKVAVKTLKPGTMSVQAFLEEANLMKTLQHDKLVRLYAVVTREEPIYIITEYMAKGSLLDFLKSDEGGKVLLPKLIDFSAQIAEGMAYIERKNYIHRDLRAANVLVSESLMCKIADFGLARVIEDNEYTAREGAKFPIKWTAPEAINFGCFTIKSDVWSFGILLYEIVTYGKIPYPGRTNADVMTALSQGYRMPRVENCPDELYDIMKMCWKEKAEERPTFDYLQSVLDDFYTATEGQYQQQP
UniProt Q9UBS0, sequence (whole entry, looked up): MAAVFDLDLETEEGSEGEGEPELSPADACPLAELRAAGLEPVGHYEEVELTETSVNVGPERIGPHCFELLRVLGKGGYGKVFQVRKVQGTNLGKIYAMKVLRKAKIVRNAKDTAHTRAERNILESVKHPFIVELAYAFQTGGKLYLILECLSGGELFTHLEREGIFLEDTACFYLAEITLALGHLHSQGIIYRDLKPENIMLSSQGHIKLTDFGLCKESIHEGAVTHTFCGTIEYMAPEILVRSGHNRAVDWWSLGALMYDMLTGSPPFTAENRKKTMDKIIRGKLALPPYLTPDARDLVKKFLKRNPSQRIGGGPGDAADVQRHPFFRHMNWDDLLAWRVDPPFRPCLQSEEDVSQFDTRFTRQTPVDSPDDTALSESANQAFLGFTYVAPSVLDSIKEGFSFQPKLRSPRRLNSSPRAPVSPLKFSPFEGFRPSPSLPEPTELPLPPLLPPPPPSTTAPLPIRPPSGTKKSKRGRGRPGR

Set 1
Species: human
Matrix: microsomes or S9
Concentration: 2 µM
Time: 0.5 h
The remaining compound of COC(=O)CCN1C(=O)c2ccncc2/C1=C\c1ccccc1 is reported as 0.0221%.
The remaining compound of COC(=O)C1CCCN1C(=O)c1ccc(NC(c2ccc(Cl)cc2)c2ccccc2Cl)c(F)c1 (stereo not shown) is reported as 48.1%.
O=C(CCCc1c[nH]c2ccccc12)Nc1cccc(C(=O)O)c1 gave a remaining compound of over 100%.
Cc1cc(Oc2ccc(-n3cncn3)cc2)nc(C)n1 gave a remaining compound of 78.4%.
For Cc1cc(C)n(CCCN(C)CC2(O)CNCCOC2)n1 (stereo not shown), the remaining compound was 50.8%.
The remaining compound of CCCc1nn2c(N)c(C#N)nnc2c1-c1ccc(F)cc1 is reported as 51.7%.
The remaining compound of CC(c1cncs1)N(C)C(=O)c1cnn(C(C)C)c1 (stereo not shown) is reported as 91%.
O=C(CSc1n[nH]c2nc3ccccc3n12)c1ccc(O)cc1 has a remaining compound of 10.5%.
Nc1cc(Cl)c(Oc2ccc(Cl)nn2)c(Cl)c1 gave a remaining compound of 91.9%.
For CCCN(CC1CCCO1)C(=O)c1sc2ncn(C)c(=O)c2c1C (stereo not shown), the remaining compound was 92.4%.
CCOc1cc(=O)n2c(c1C(=O)Nc1ccccc1C(=O)OC)CCCC2 gave a remaining compound of 37.3%.
COc1c2c(cc3c1OCO3)CCN(C)C(C(=O)c1ccc(Br)cc1)=C2 gave a remaining compound of 0%.
For O=S1(=O)N=C(N(CCc2ccccc2)Cc2ccccc2)c2ccccc21, the remaining compound was 37.2%.
Cc1sc(Br)nc1-c1ccc(NS(C)(=O)=O)c(Cl)c1 gave a remaining compound of 57.9%.
CC(C)c1nc(CN(C)Cc2cnc(N(C)C)nc2)cs1 gave a remaining compound of 12.2%.

Set 2
Structure (SMILES): C=CCc1ccc(O)c(-c2cc(CC=C)ccc2O)c1
Target: Anoctamin-1 (ANO1, Homo sapiens, UniProt Q5XXA6, del476-501)
UniProt Q5XXA6, sequence (whole entry, unmodified, looked up): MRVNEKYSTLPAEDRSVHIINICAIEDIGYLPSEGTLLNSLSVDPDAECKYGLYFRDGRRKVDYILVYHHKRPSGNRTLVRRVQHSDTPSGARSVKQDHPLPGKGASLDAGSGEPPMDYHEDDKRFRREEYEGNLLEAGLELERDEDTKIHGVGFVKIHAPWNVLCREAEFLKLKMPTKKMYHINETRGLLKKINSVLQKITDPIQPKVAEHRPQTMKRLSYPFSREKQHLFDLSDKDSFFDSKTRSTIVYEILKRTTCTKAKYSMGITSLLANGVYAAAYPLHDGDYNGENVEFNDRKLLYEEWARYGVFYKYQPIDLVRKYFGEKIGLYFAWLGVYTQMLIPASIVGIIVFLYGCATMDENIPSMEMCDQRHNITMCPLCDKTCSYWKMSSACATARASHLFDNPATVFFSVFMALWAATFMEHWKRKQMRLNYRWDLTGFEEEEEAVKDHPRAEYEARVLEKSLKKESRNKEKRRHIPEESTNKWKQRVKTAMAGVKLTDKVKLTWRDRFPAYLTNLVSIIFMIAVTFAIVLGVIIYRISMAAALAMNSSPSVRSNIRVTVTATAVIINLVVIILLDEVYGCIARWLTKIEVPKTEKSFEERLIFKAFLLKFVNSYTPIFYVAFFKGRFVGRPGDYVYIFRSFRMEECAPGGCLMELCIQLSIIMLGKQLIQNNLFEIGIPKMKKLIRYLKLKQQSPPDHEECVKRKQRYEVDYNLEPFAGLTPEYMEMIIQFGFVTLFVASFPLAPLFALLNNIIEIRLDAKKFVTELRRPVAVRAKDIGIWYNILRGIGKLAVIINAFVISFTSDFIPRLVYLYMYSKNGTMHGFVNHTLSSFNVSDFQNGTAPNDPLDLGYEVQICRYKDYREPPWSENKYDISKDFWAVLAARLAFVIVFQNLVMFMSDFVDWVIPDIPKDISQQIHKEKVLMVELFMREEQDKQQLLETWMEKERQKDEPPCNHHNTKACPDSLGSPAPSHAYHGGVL
Effect on: chloride current
Method: whole-cell patch clamp
The normalised current was 0.934 (1 µM, 100 mV, 300 nM free Ca2+).
It gave 0.266 for normalised current (10 µM, 60 mV, 300 nM free Ca2+).
3 µM, 80 mV, 300 nM free Ca2+ — normalised current: 0.609.
10 µM, 60 mV, 300 nM free Ca2+, added: honokiol and magnolol 3 µM — normalised current: 0.24.
30 µM, 60 mV, 300 nM free Ca2+ — normalised current: 0.154.
100 µM, -20 mV, 300 nM free Ca2+, added: honokiol and magnolol 3 µM — normalised current: -0.0047.
It gave 0.286 for normalised current (100 µM, 100 mV, 300 nM free Ca2+).
The normalised current was -0.0263 (100 µM, -80 mV, 300 nM free Ca2+).
For 100 µM, -60 mV, 300 nM free Ca2+, added: honokiol and magnolol 3 µM: normalised current read -0.0128.
The normalised current was 0.0474 (30 µM, 40 mV, 300 nM free Ca2+, added: honokiol and magnolol 3 µM).
For 10 µM, 40 mV, 300 nM free Ca2+: normalised current read 0.141.
For 3 µM, -60 mV, 300 nM free Ca2+: normalised current read -0.0871.

Set 3
SMILES: O=C(NCc1ncc(C(F)(F)F)cc1Cl)c1ccc2c(c1)C1(CCS(=O)(=O)CC1)[C@H](C1CC1)N2S(=O)(=O)c1ccc(F)cc1
Effect on: cell-free assay
Method: competition with immobilised ligand
Concentration: 1 µM
For ERBB4 (Homo sapiens, UniProt Q15303): remaining binding read 70%.
The remaining binding was 95% (VRK2 (Homo sapiens, UniProt Q86Y07)).
The remaining binding was 100% (NEK5 (Homo sapiens, UniProt Q6P3R8)).
For MAPK14 (Homo sapiens, UniProt Q16539): remaining binding read 100%.
For PRKCI (Homo sapiens, UniProt P41743): remaining binding read 81%.
The remaining binding was 80% (TBK1 (Homo sapiens, UniProt Q9UHD2)).
For Ribosomal protein S6 kinase alpha-2, N-terminal kinase domain (RPS6KA2, Homo sapiens, UniProt Q15349): remaining binding read 100%.
CLK4 (Homo sapiens, UniProt Q9HAZ1) — remaining binding: 0%.
It gave 91% for remaining binding (WNK4 (Homo sapiens, UniProt Q96J92)).
The remaining binding was 74% (MKNK1 (Homo sapiens, UniProt Q9BUB5)).
For MET (Homo sapiens, UniProt P08581, Y1235D): remaining binding read 100%.
TGFBR1 (Homo sapiens, UniProt P36897) — remaining binding: 100%.
The remaining binding was 83% (COQ8B (Homo sapiens, UniProt Q96D53)).
For EGFR (Homo sapiens, UniProt P00533, L858R/T790M): remaining binding read 95%.

Set 4
Compound: Cc1sc(C(=O)NC2COC2)cc1-n1cc(NC(=O)Nc2c(F)cccc2Cl)cn1
Effect on: enzyme activity
Concentration: 10 µM
It gave 102% for remaining activity (ROS1 (Homo sapiens, UniProt P08922); baseline: untreated control).
The remaining activity was 92.5% (Cyclin-dependent kinase 1, with cyclin B (CDK1, Homo sapiens, UniProt P06493); baseline: untreated control).
For VRK1 (Homo sapiens, UniProt Q99986); baseline: untreated control: remaining activity read 105%.
It gave 95.6% for remaining activity (DYRK2 (Homo sapiens, UniProt Q92630); baseline: untreated control).
The remaining activity was 97.5% (CSNK1E (Homo sapiens, UniProt P49674); baseline: untreated control).
For TGFBR1 (Homo sapiens, UniProt P36897); baseline: untreated control: remaining activity read 104%.
It gave 63.8% for remaining activity (KIT (Homo sapiens, UniProt P10721); baseline: untreated control).
CLK3 (Homo sapiens, UniProt P49761); baseline: untreated control — remaining activity: 96.3%.
PRKACG (Homo sapiens, UniProt P22612); baseline: untreated control — remaining activity: 97.4%.
The remaining activity was 99.8% (BRSK2 (Homo sapiens, UniProt Q8IWQ3); baseline: untreated control).
The remaining activity was 85.5% (RAF1 (Homo sapiens, UniProt P04049); baseline: untreated control).
It gave 78.5% for remaining activity (IRAK1 (Homo sapiens, UniProt P51617); baseline: untreated control).
For DDR2 (Homo sapiens, UniProt Q16832); baseline: untreated control: remaining activity read 104%.
For DYRK1B (Homo sapiens, UniProt Q9Y463); baseline: untreated control: remaining activity read 104%.
PRKACA (Homo sapiens, UniProt P17612); baseline: untreated control — remaining activity: 92.5%.
RPS6KB2 (Homo sapiens, UniProt Q9UBS0); inhibitor — remaining activity: 98.9%.
It gave 88.8% for remaining activity (Tyrosine-protein kinase Lyn, isoform B (LYN, Homo sapiens, UniProt P07948); baseline: untreated control).

For quick reference, copied from above (set 2):
100 µM, -20 mV, 300 nM free Ca2+, added: honokiol and magnolol 3 µM — normalised current: -0.0047.
It gave 0.286 for normalised current (100 µM, 100 mV, 300 nM free Ca2+).
The normalised current was -0.0263 (100 µM, -80 mV, 300 nM free Ca2+).
For 100 µM, -60 mV, 300 nM free Ca2+, added: honokiol and magnolol 3 µM: normalised current read -0.0128.
The normalised current was 0.0474 (30 µM, 40 mV, 300 nM free Ca2+, added: honokiol and magnolol 3 µM).
For 10 µM, 40 mV, 300 nM free Ca2+: normalised current read 0.141.
For 3 µM, -60 mV, 300 nM free Ca2+: normalised current read -0.0871.
